# Published values gathered from unrelated publications.
# Protocols differ between the studies behind these lines. ± gives the spread as reported.
Molecule,assay,system,setting,how to read,endpoint,result
[123I]c1cncc(OC[C@@H]2CCN2)c1,SPECT,"human, hippocampus","intravenous bolus plus infusion, 7.7 mCi",baseline: tissue over plasma,tissue/plasma ratio,46.1
Cc1cnc(C(=O)N[C@H]2CCCCC/C=C\[C@@H]3C[C@@]3(C(=O)NS(=O)(=O)C3CC3)NC(=O)[C@@H]3C[C@@H](Oc4nc5ccccc5c5ccccc45)CN3C2=O)cn1,,"healthy human volunteers, plasma","oral, dose not given, alone, escitalopram interaction study",,AUC(0-24),2700 ng·h/mL
CC(=O)N[C@H](CCCCNC(=O)C(C)F)C(=O)N[C@@H](CS)C(=O)N[C@@H](CS)C(=O)N[C@@H](CCC(=O)O)C(=O)N[C@@H](Cc1c[nH]cn1)C(=O)N[C@H](Cc1ccccc1)C(=O)N[C@@H](CCCNC(=N)N)C(=O)N[C@@H](Cc1c[nH]c2ccccc12)C(=O)N[C@@H](CS)C(=O)N[C@@H](CCCNC(=N)N)C(=O)N1CCC[C@H]1C(=O)N[C@H](C(N)=O)C(C)C (stereo partly drawn) [fluorine-18 labelled],,"C57BL/6 mice, male, B16-F10 tumour, heart","intravenous, 4 h",,tissue uptake,0.14 ± 0.06 %ID/g
CN[C@@](C)(C[18F])C(=O)O,,SCID mice (MDA-MB-468 xenograft),60 min after injection,,tumour uptake,3.9 ± 0.6 %ID/g
O=C(c1ccc(F)c(F)c1Nc1ccc(I)cc1F)N1CC(O)([C@@H]2CCCCN2)C1,item: retinal detachment,human patients,"oral, dose not given, dose escalation, suspension, grade G1",,treatment-related adverse events,8%
CCCCCOc1ccc(-c2ccc(-c3ccc(C(=O)N[C@H]4C[C@@H](O)[C@@H](O)NC(=O)[C@@H]5[C@@H](O)[C@@H](C)CN5C(=O)[C@H]([C@@H](C)O)NC(=O)[C@H]([C@H](O)[C@@H](O)c5ccc(O)cc5)NC(=O)[C@@H]5C[C@@H](O)CN5C(=O)[C@H]([C@@H](C)O)NC4=O)cc3)cc2)cc1,,adult patients,"iv, dose not given, 3, during treatment",,patients with gastrointestinal adverse events,30%
CCN1CCN(Cc2ccc(Nc3ncc(F)c(-c4cc(F)c5nc(C)n(C(C)C)c5c4)n3)nc2)CC1,,"chick embryo, chorioallantoic membrane","topical, 5 d, ungrafted",,LD50,> 1 mM
CCCCCCCCCCCCCCCC[N+](C)(C)C,substrate depletion,human liver microsomes,"0.5 µM, 0 to 3 h, 37 °C, with: NADPH",,intrinsic clearance,0.069 mL/h/mg protein
O[C@H]1CCCN[C@@H]1CCCn1cnc2c(Cl)c(Cl)ccc21,,"healthy volunteers, urine","oral, 600 mg capsule single, geometric mean",,renal clearance (0-72 h),276 mL/min
Oc1cccc2ccccc12,fish short-term reproduction,"Oryzias latipes, male, water, flow-through","80.0 µg/L, end of exposure",,body length,39.2 ± 1.1 mm
Cc1cc(C(C#N)c2ccc(Cl)cc2)c(Cl)cc1NC(=O)c1cc(I)cc(I)c1O (stereo not drawn),,"parasitized Corriedale lambs, plasma","oral, 10 mg/kg",,mean residence time,490 ± 111 h
triclabendazole sulfoxide,,human liver mitochondrial fraction,"1 µM, 30 min",,metabolised fraction,0%

# For quick reference, copied from above:
Molecule,assay,system,setting,how to read,endpoint,result
CCCCCCCCCCCCCCCC[N+](C)(C)C,substrate depletion,human liver microsomes,"0.5 µM, 0 to 3 h, 37 °C, with: NADPH",,intrinsic clearance,0.069 mL/h/mg protein
